Measured values gathered from unrelated publications.
Numbered parts are unrelated; each lists some results of a single study.

Series 1 — method: protein binding microarray; form: double-stranded DNA, one strand shown; sample: in vitro; tested at: not given; reference: not given; reading: higher = stronger binding
Target: Histone acetyltransferase KAT6A, both winged helices, GST fusion (KAT6A, Homo sapiens, UniProt Q92794, residues 1-181)
Notes: 8-mer, flanks averaged, mean of 2 arrays, mostly near background
Target sequence (chain): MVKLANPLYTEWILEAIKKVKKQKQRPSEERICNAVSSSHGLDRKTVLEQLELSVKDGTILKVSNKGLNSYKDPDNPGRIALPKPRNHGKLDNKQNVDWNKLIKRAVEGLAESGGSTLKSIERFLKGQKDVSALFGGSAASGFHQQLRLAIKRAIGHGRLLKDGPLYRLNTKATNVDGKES
| Sequence | E-score |
| --- | --- |
| AATGCGTA | 0.26 |
| CATCAGGA | -0.0847 |
| ATGCCGAC | 0.289 |
| TAACAGCA | -0.0245 |
| AGGCGGGG | 0.0904 |
| ACTCCTTC | -0.218 |
| GGTTTTAC | 0.00906 |
| CATATGGC | 0.00626 |
| GCAATGTA | -0.023 |
| ATTAAGAG | -0.116 |
| CCCACGGG | 0.142 |
| GGAGGTGA | -0.115 |
| GACTCCTC | -0.105 |
| ATGGGTAG | -0.107 |
| AGTCCAAA | -0.143 |
| GTAGACCA | -0.107 |
| ACGATCCG | 0.0579 |
| CTATCATA | -0.0707 |
| CTCGGGGC | 0.0124 |
| CGACAGCA | 0.061 |
| CCGTTAAA | 0.134 |
| GCTACCCA | -0.127 |
| GGTCTACA | 0.049 |
| CAGGTAGC | 0.049 |
| AACGCCTT | 0.165 |

Series 2 — method: RNA Bind-n-Seq; form: RNA; sample: in vitro; tested at: 365 nM; reference: no-protein control; reading: higher = stronger binding
Target: RNA binding protein fox-1 homolog 2, RRM domain, GST-SBP tag (RBFOX2, Homo sapiens, UniProt O43251-10, residues 100-194)
Notes: natural RNA segment, single round, ends assumed
Residues (chain): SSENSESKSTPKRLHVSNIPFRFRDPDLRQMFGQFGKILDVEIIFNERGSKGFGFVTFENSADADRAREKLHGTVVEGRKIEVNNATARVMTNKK
| Sequence | RBNS enrichment (R) |
| --- | --- |
| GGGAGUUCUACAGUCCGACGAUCAGUUGAAGUACUAUGAAUACAACCUGCUAAUCUUGAUCCCCAAAUCUGAGCCCUUCAGUUUCAUAAUUGUUUUAUCCUGAACGUAGUUGUGACAUAGACAUUUCUCAAAAUGGAAUUCUCGGGUGCCAA | 0.312 |
| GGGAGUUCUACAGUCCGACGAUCUGAAGAAGUUCUAACUUUUAGCAUGCUGCACAGAAACUGGUAUAACAUGCCUUCAGUAUACUAACACUCAUAUGCUCAGUUUUGUUUUGUUUUGGCAGUUGACAAGAAGUUGGAAUUCUCGGGUGCCAA | 9.77 |
| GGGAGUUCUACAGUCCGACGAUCACUGUAGUCCUAUUGAGAAGACAUUUCGUCUCUGAGAAAAAAGGAUGGAACUAUGGGUUCUCUUCGCAAAGCCAAAGGAUAGUGUUUAACAAGCCAGCUGGCUUAUGCUGUGGAAUUCUCGGGUGCCAA | 0.27 |
| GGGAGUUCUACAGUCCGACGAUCUUCAGAUAUCCAAGCAGAAUUUUAUUAUGGACACCUUGUAAUGAAUUCAAAUCGUGUGACAGCAAACGGGAUAAAUGGCCCCUUCUCACCCAGUUCCGCUCAGGGCCAUAUGGAAUUCUCGGGUGCCAA | 0.349 |
| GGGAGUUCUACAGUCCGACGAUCACAGAUUGUUGAGCCUACCAUAGGUCAAAAGGACUGGAAUUUUCCUUCUUAACAAGUAUAGUCAUGGCACCACGUAACAUUUUGGUCAAUGACAUUGUAUAAAGGGUGGUUGGAAUUCUCGGGUGCCAA | 0.341 |
| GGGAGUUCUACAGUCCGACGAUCUCUAUAAUACUUCAUUUUAAAUGUAAAUGGCCACUCUGCAUUUGCAAGGCCCGGUGGUUGACAUCUGUGUGGUUUGUUAGAUGAGACAAAAUGACCAUUAAAUGAGUUUAUGGAAUUCUCGGGUGCCAA | 0.764 |
| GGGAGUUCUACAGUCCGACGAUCAAGGUUUGUGGGAAAAUGUAGGUGAUUUAGAGAGAACCUUGUGUAGUUUUUCUUACGACUCAGACAGGUGGGAUGGACAGACAGGUGCAUGUUACUGCGUUCUGUGUCGGUGGAAUUCUCGGGUGCCAA | 2.73 |
| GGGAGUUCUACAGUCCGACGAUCAACCCCAGCCUGAUAUAGUCUUGCUUCCGUUGCCCACUGCCUAUGAGCUAGACAGCACCAAACUGAAGAGCCCACUAAUUACUUCCCCCAUGUUCCGUAAUGUGCCCACAUGGAAUUCUCGGGUGCCAA | 0.495 |
| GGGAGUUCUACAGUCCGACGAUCUGGUAGCCAUCUUAGACACUGACAUUUGGCUUUGUCGUCAAUUUCAUCACCCUCCUUGAGGUUACUGUGCAGUUUCAACCAGCAUUUUAUCCUAGUGAGGUCAUUAUCAGUGGAAUUCUCGGGUGCCAA | 0.257 |

Series 3 — method: protein-binding microarray; form: double-stranded DNA, one strand shown; sample: in vitro; tested at: 2200 nM top; notes: 60-bp whole probe; added: salmon DNA 0.4 mg/ml; reference: random background probes; reading: higher = stronger binding; constant ends, left off below: GCCTAGCAC … GTCTTGATTCGCTTGACGCTGCTG
Target: Interferon regulatory factor 7, full length, phosphomimetic (IRF7, Homo sapiens, UniProt Q92985, residues 1-503, S471D/S472D/S475D/S476D/S477D/S483D/S484D/S487D)
Residues (chain): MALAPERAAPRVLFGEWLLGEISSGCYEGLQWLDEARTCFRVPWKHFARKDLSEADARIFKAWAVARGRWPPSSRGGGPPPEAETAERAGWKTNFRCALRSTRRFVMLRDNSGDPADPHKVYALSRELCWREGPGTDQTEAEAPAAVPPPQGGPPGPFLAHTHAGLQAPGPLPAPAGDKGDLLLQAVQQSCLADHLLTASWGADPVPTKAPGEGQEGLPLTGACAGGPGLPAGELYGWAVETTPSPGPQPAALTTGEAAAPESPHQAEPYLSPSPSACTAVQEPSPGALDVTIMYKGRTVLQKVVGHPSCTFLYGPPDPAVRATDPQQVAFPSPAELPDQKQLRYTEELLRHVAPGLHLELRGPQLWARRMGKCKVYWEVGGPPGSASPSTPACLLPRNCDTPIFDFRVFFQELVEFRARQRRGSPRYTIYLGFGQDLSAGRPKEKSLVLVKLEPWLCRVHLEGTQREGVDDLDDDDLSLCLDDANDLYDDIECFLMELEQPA
| Sequence | fitted relative affinity [z-score] |
| --- | --- |
| TCAGGTATCGACACTGGGTTAGTGCTA | 0.378 |
| TCATCTTTCCATACTGCACTGTGCTAG | 2.62 |
| GTGTTTTGCCCTATTTAAGAGTGCTAG | 2.22 |
| TTAGATTCCAGTTTCGGTTAGTGCTAG | 8.75 |
| GACGGTCTCGGACTGGGCACGTGCTAG | -0.73 |
| GACGCTTTCGGGTATCGGGACGTGCTA | 6.76 |
| ATGAAATGCCACACACACACGTGCTAG | 0.398 |
| AGACTTTTTTCAGACCTGTCGTGCTAG | 0.563 |
| TTAGGACTGGGACTGGATTAGTGCTAG | -0.784 |
| TTAGATGTCGGGTATCGATTAGTGCTA | 0.0605 |
| TGTTTTACAGGTTCTCTTTTAGTGCTA | 1.6 |
| GACGGACTGGGGTATCTGGACGTGCTA | -0.631 |
| TCACATTTAGAAAATGGAACTGTGCTA | 0.36 |
| CCCATTCTCAGCCCTGCGCATGTGCTA | 1.15 |
| TCAAGACTCTCTTGTCTGACTGTGCTA | 0.00995 |
| TTAGGTTTCGGTTCCGGGTAGTGCTAG | 11.5 |
| GACGGTCTCGGTTTCGGCACGTGCTAG | 2.63 |
| GTGAAATAAGGGAGGCCTAGGTGCTAG | -0.823 |
| GAGTTCCTCTCTAGGCACTGGTGCTAG | 0.452 |
| TTAGATATCGGGACTGGGTTAGTGCTA | -0.28 |
| GACGGTCTCCTTCTCCAGACGTGCTAG | 1.03 |

Series 4 — method: RNA Bind-n-Seq; form: RNA; sample: in vitro; tested at: not given; reference: input RNA pool; reading: higher = stronger binding
Target: RING finger protein unkempt homolog, zinc fingers 1-6, GST-SBP tag (UNK, Homo sapiens, UniProt Q9C0B0, residues 30-357)
Chain of UniProt Q9C0B0 (30-357, looked up): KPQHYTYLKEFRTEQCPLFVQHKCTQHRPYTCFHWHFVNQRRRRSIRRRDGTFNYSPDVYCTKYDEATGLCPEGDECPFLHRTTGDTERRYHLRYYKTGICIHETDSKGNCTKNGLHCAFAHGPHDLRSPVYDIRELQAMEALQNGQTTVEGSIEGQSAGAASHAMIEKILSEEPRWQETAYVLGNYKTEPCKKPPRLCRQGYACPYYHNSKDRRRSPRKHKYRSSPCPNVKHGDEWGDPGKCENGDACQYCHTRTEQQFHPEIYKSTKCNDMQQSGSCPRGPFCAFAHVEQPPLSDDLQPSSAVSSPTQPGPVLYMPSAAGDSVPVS
Notes: RNA with constant flanks, human-mouse chimeric sites, ends assumed
| Sequence | bound/input enrichment [ratio] |
| --- | --- |
| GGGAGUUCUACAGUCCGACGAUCAGCACAACCCCAGCAAAGCUAAGAAAUCCUUGUACAAGUGAACAGAACUGCACCAGCCCAUUUAGCUACAAAAAUGUGCUUAGUCUUACUGACAGAGGAGAGUUUUUUAAUGAACUUGUUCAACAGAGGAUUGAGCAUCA | 1.51 |
| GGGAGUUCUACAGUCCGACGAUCAUCAAAUACUUUGGGGAUAUUAUUAGCGUGGGACAGAGACUGUUGCAAGGAGCUCGGAUCUUAGGGAUUCCAGUUAUCAUAACGGAACAAUACCCCAAAGGACUUGGCAGCACCGUUCAACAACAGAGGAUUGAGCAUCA | 0.305 |
| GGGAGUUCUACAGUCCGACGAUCGAAACUAUUCCUAAAGAGGAGAAAGCUGAAAAGGAAGCUCGGAGACCGUCUCUCGAGAAACAUAGAAAAGAAAAGCCUUUUAAAACCGGGAGAGGCAGAAUUUCCACUCCUGAAAGAAAACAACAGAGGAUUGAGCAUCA | 0.463 |
| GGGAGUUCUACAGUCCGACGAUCAAAGUGGACUAUGGCGAGUACAUGGAUAAAAACAAUGUGAGGCGACAAGCAACAACAAUCAUAGCUGAUAACAUUAUAUUUCUGAGUGACCAGACAAAAGAGAAGGAAUAGAACGGAUGACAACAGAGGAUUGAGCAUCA | 1.72 |
| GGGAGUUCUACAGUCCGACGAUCUCCCAAAUCCAGCAGCUAGAAGGAGCCUUGAGACAAACACUCCACACACAGGGAAGGCGAUAACAUUGUAAAUUGGUUUACAUUUUUUCCCCCUGUGGAUUUUUCUAUCCUAGUGCUUGCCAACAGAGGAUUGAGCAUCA | 0.312 |
| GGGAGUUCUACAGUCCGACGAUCUCUUUAAAUGCACUACAACAGGAAAAUACAGUGCUUUCCCUCCCAUAGAUCCACGUUCAAGCUCAAAGAGCAAAGGCUUUGCACGGAGCUCAAACAUCUGAUGAAGAAAGAUUUCUGAGACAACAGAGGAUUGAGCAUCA | 0.419 |
| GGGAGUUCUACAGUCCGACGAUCGAUGAUAAUCACACAAAUGUGGCACUUUUACAUGACCAGCCUUGGGAUUCUUUUCCUGAUUAGUAUUCUCCCUGGAACCACUGGUCAAGGGGAAUCAAGACGACAAGAACCCGGGGACUUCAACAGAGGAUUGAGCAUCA | 0.129 |
| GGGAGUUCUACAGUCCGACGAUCGAGUCGAGCAAACUUGAAACAAUUCGUUUUACAAAAACCUCAGUGUUCACUUGCUUGGCGAUAGCAUUGGGGUUUUAUAGGUUCUGGAAGGAGAACUUUAAUGCUCACUGCCGCUGCUGCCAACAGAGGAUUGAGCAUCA | 0.227 |
| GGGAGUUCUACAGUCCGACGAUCGCCACCAGAUCCCAGAAACAUGACCCUUGCUGCCUACAAAGAGAAGAUGAAGGAGCUCCCACUAGUGUCCUUGUUCUGCUCCUGCUUCUUGUCUGAUCCCCUGAAUAAGUCGUCCUACAACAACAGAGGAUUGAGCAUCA | 0.587 |
| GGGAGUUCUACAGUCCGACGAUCUGGCGCCUCCCAUUUUUACUCGUGUUUUUAAGUGUAUUUUUAUAAGACAUGUGUAUUUACAAUUGAGCUUUUGUUACAUAAUGCUGAAAUGCUACUGGAGAUUAUGAAAAAUGUUUCAAUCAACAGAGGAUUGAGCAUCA | 0.2 |
| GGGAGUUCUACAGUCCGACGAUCCUGUGACCACAAGAUCCUACCUGAGUGGCAGCUGAAGUUGACUCCCUCUCCUUGCCUGAACCCCCCCCCACUGCCCCCCCAUCCCCCAGUGUCGGCUAUUCUCUGGUCAGCAGACAGUUCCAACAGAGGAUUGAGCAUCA | 0.44 |

Excerpt of the above (series 3):
| Sequence | fitted relative affinity [z-score] |
| --- | --- |
| TTAGGACTGGGACTGGATTAGTGCTAG | -0.784 |
| TTAGATGTCGGGTATCGATTAGTGCTA | 0.0605 |
| TGTTTTACAGGTTCTCTTTTAGTGCTA | 1.6 |
| GACGGACTGGGGTATCTGGACGTGCTA | -0.631 |
| TCACATTTAGAAAATGGAACTGTGCTA | 0.36 |
| CCCATTCTCAGCCCTGCGCATGTGCTA | 1.15 |
| TCAAGACTCTCTTGTCTGACTGTGCTA | 0.00995 |
| TTAGGTTTCGGTTCCGGGTAGTGCTAG | 11.5 |
| GACGGTCTCGGTTTCGGCACGTGCTAG | 2.63 |
| GTGAAATAAGGGAGGCCTAGGTGCTAG | -0.823 |
| GAGTTCCTCTCTAGGCACTGGTGCTAG | 0.452 |
